Assay results of several laboratories.
Compare with care: the assays were run in different laboratories. ± gives the spread as reported.

SMILES	assay	system	conditions	how to read	measurement	result
CC[C@H](C)[C@H](NC(=O)[C@@H](Cc1c[nH]c2ccccc12)NC(=O)[C@@H]1CCCN1C(=O)[C@H](CCCCN)NC(=O)[C@H](CCCCN)NC(=O)CCNC(=O)CCNC(=O)CN1CCN(CC(=O)O)CCN(CC(=O)O)CCN(CC(=O)O)CC1)C(=O)N[C@@H](C[Si](C)(C)C)C(=O)O [gallium-68 labelled]	–	human blood plasma	30 min	–	remaining intact peptide	5%
O=C(O)Cc1cccc(OC(=O)NCCCCCn2ccc3ccc(F)cc32)c1	–	porcine plasma	20 µM, 0.5 h, 37 °C	–	remaining parent compound	83 ± 5%
COc1cc(C(=O)NCCOCCOCCOCCNC(=O)c2ccc([18F])nc2)ccc1NC(=O)C1NC(CC(C)(C)C)C(C#N)(c2ccc(Cl)cc2F)C1c1cccc(Cl)c1F (centres unmarked)	–	human serum	4 h, 37 °C	–	remaining intact	~100%
CC[C@H](C)[C@@H]1NC(=O)[C@H](CCCCN)NC(=O)[C@H](CCCCN)NC(=O)[C@H](Cc2ccc(O)cc2)NC(=O)[C@H](CC(C)C)NC(=O)[C@@H]2CCCN2C(=O)CNC(=O)CNC(=O)[C@@H](N)CSSC[C@@H](C(=O)N[C@@H](CCC(=O)O)C(=O)N[C@@H](CO)C(N)=O)NC(=O)[C@H](CC(C)C)NC(=O)[C@H](CCCCN)NC(=O)[C@H](CCCCN)NC(=O)[C@H]([C@@H](C)CC)NC(=O)[C@H]([C@@H](C)CC)NC(=O)[C@H](CCCCN)NC(=O)[C@H](CCCCN)NC(=O)[C@H](Cc2ccc(O)cc2)NC(=O)[C@H](CC(C)C)NC(=O)[C@@H]2CCCN2C(=O)[C@H](C)NC(=O)CNC(=O)CNC(=O)[C@H](CO)NC(=O)CNC(=O)CNC(=O)[C@H](CO)NC(=O)[C@H](CCC(=O)O)NC(=O)[C@H](CC(C)C)NC(=O)[C@H](CC(C)C)NC(=O)[C@H](CCCCN)NC(=O)[C@H](CCCCN)NC(=O)[C@H]([C@@H](C)CC)NC1=O	–	25% human serum	50 µM, 24 h	relative to: 0 h control	remaining intact peptide	65.4 ± 3.4%
CC(C)C[C@@H]1NC(=O)[C@@H]2CCCN2C(=O)[C@H](Cc2c[nH]c3ccccc23)NC(=O)[C@@H]2CCCN2C(=O)[C@H](Cc2ccccc2)NC(=O)[C@H](CC(=O)O)NC(=O)[C@H](C)NC(=O)[C@@H]2CSSC[C@H](NC(=O)[C@H](CCC(N)=O)NC(=O)[C@H](Cc3c[nH]cn3)NC(=O)CNC1=O)C(=O)N[C@@H](Cc1ccccc1)C(=O)N1CCC[C@H]1C(=O)N[C@@H](CC(=O)O)C(=O)NCC(=O)N[C@@H](Cc1ccccc1)C(=O)N[C@H]1CSSC[C@H](NC(=O)[C@H](CO)NC(=O)[C@H](Cc3c[nH]cn3)NC(=O)[C@H](Cc3c[nH]cn3)NC(=O)[C@H](Cc3c[nH]c4ccccc34)NC1=O)C(=O)N[C@@H](C(C)C)C(=O)N1CCC[C@H]1C(=O)N[C@@H](CO)C(=O)NCC(=O)N[C@@H]([C@@H](C)O)C(=O)N2	RP-HPLC	simulated gastric fluid with pepsin	24 h, pH 1.2, 37 °C	–	remaining intact	> 50%
CC[C@H](C)[C@@H]1NC(=O)[C@H](CCCNC(=N)N)NC(=O)[C@H](CCCNC(=N)N)NC(=O)[C@H](Cc2ccc(O)cc2)NC(=O)[C@H](CC(C)C)NC(=O)[C@@H]2CCCN2C(=O)[C@H](C)NC(=O)CNC(=O)CNC(=O)[C@H](CO)NC(=O)CNC(=O)CNC(=O)[C@H](CO)NC(=O)[C@H](CCC(=O)O)NC(=O)[C@H](CC(C)C)NC(=O)[C@H](CC(C)C)NC(=O)[C@H](CCCNC(=N)N)NC(=O)[C@H](CCCNC(=N)N)NC(=O)[C@H]([C@@H](C)CC)NC(=O)[C@H]([C@@H](C)CC)NC(=O)[C@H](CCCNC(=N)N)NC(=O)[C@H](CCCNC(=N)N)NC(=O)[C@H](Cc2ccc(O)cc2)NC(=O)[C@H](CC(C)C)NC(=O)[C@@H]2CCCN2C(=O)CNC(=O)CNC(=O)[C@@H](NC(=O)CN)CSSC[C@@H](C(N)=O)NC(=O)[C@H](CC(C)C)NC(=O)[C@H](CCCNC(=N)N)NC(=O)[C@H](CCCNC(=N)N)NC(=O)[C@H]([C@@H](C)CC)NC1=O	–	25% human serum	50 µM, 24 h	relative to: 0 h control	remaining intact peptide	4.4 ± 0.2%
C[C@@H]1NC(=O)[C@H](CC(N)=O)N2C[C@H](Cc3c[nH]c4ccccc34)NC(=O)[C@H](CSCC2=O)NC(=O)[C@H](CCCNC(=N)N)NC(=O)[C@@H](Cc2ccccc2)NC(=O)[C@H](Cc2c[nH]cn2)NC(=O)[C@@H](NC(=O)[C@@H](N)Cc2ccc(O)cc2)CSSC[C@@H](C(=O)N[C@@H](Cc2ccc(O)cc2)C(N)=O)NC(=O)[C@H](Cc2ccccc2)NC1=O	LC-MS	rat serum	10 µM, 6 h, 37 °C	–	remaining compound	~40%
CC(C)C[C@@H](N)C(=O)NCC(=O)N[C@H](C)C(=O)N[C@H](CO)C(=O)N[C@H](Cc1c[nH]c2ccccc12)C(=O)N[C@H](Cc1c[nH]cn1)C(=O)N[C@H](CCCNC(=N)N)C(=O)N1CCC[C@@H]1C(=O)N[C@H](CC(=O)O)C(=O)N[C@H](CCCCN)C(=O)N[C@H](CS)C(=O)N[C@H](CS)C(=O)N[C@H](CC(C)C)C(=O)NCC(=O)N[C@H](Cc1ccc(O)cc1)C(=O)N[C@H](CCC(N)=O)C(=O)N[C@H](CCCCN)C(=O)N[C@H](CCCNC(=N)N)C(=O)N1CCC[C@@H]1C(=O)N[C@H](CC(C)C)C(=O)N1CCC[C@@H]1C(N)=O	RP-HPLC	cell culture medium	48 h	–	remaining intact compound	~77%
CSCC[C@H](NC(=O)CNC(=O)[C@H](CC(=O)O)NC(=O)[C@@H](NC(=O)[C@@H](NC(=O)[C@@H](NC(=O)CNC(=O)[C@H](CCC(=O)O)NC(=O)[C@H](CCSC)NC(=O)[C@H](CC(=O)O)NC(=O)[C@H](C)NC(=O)[C@H](C)NC(=O)[C@@H](NC(=O)[C@H](CO)NC(=O)[C@@H](N)CC(C)C)[C@@H](C)O)C(C)C)C(C)C)[C@@H](C)O)C(=O)N[C@@H](C)C(=O)N[C@@H](CO)C(=O)NCC(=O)N[C@@H](CC(C)C)C(=O)N[C@@H](CC(=O)O)C(=O)N[C@@H](CCCCN)C(=O)N[C@@H](CC(=O)O)C(=O)N[C@@H](Cc1ccc(O)cc1)C(=O)N[C@@H](CC(C)C)C(=O)N[C@@H](CCCCN)C(=O)N1CCC[C@H]1C(=O)N[C@@H](CC(=O)O)C(=O)N[C@@H](CC(=O)O)C(=O)O	LC-MS/MS	human serum	10 µg/mL, 24 h, 37 °C	–	remaining compound	59%
CC[C@H](C)[C@@H]1NC(=O)[C@H](CCCNC(=N)N)NC(=O)[C@H](CCCCN)NC(=O)[C@H](Cc2ccc(O)cc2)NC(=O)[C@H](CC(C)C)NC(=O)[C@@H]2CCCN2C(=O)[C@H](C)NC(=O)CNC(=O)CNC(=O)[C@H](CO)NC(=O)CNC(=O)CNC(=O)[C@H](CO)NC(=O)[C@H](CCC(=O)O)NC(=O)[C@H](CC(C)C)NC(=O)[C@H](CC(C)C)NC(=O)[C@H](CCCCN)NC(=O)[C@H](CCCCN)NC(=O)[C@H]([C@@H](C)CC)NC(=O)[C@H]([C@@H](C)CC)NC(=O)[C@H](CCCNC(=N)N)NC(=O)[C@H](CCCCN)NC(=O)[C@H](Cc2ccc(O)cc2)NC(=O)[C@H](CC(C)C)NC(=O)[C@@H]2CCCN2C(=O)CNC(=O)CNC(=O)[C@@H](NC(=O)CN)CSSC[C@@H](C(N)=O)NC(=O)[C@H](CC(C)C)NC(=O)[C@H](CCCCN)NC(=O)[C@H](CCCCN)NC(=O)[C@H]([C@@H](C)CC)NC1=O	–	25% human serum	50 µM, 24 h	relative to: 0 h control	remaining intact peptide	3.6 ± 2.3%
O=C(NCCCCCn1ccc2ccc(F)cc21)Oc1cccc(F)c1	–	porcine liver S9 fraction without NADPH	20 µM, 0.5 h, 37 °C	–	remaining parent compound	62 ± 5%
CC[C@H](C)[C@H](NC(=O)[C@H](Cc1c[nH]c2ccccc12)NC(=O)[C@H](CCCNC(=O)c1ccc2c(c1)C1(OC2=O)c2ccc(O)cc2Oc2cc(O)ccc21)NC(=O)CNC(=O)[C@H]1CCCN1C(=O)[C@@H](NC(=O)[C@H](CCCNC(=N)N)NC(=O)[C@@H](NC(=O)[C@H](Cc1c[nH]c2ccccc12)NC(=O)[C@H](CCCN)NC(C)=O)C(C)C)C(C)C)C(=O)N[C@@H](CCCNC(=N)N)C(=O)N[C@@H](CCC(N)=O)C(N)=O	capillary electrophoresis	OPM-2 cell lysate	10 µM, 180 min, pH 7.6, 37 °C	–	remaining intact peptide	80%
CC[C@H](C)[C@@H]1NC(=O)[C@H](CCCCN)NC(=O)[C@H](CCCCN)NC(=O)[C@H](Cc2ccc(O)cc2)NC(=O)[C@H](CC(C)C)NC(=O)[C@@H]2CCCN2C(=O)[C@H](C)NC(=O)CNC(=O)CNC(=O)[C@H](CO)NC(=O)CNC(=O)CNC(=O)[C@H](CO)NC(=O)[C@H](CCCCN)NC(=O)[C@H](CC(C)C)NC(=O)[C@H](CC(C)C)NC(=O)[C@H](CCCCN)NC(=O)[C@H](CCCNC(=N)N)NC(=O)[C@H]([C@@H](C)CC)NC(=O)[C@H]([C@@H](C)CC)NC(=O)[C@H](CCCCN)NC(=O)[C@H](CCCCN)NC(=O)[C@H](Cc2ccc(O)cc2)NC(=O)[C@H](CC(C)C)NC(=O)[C@@H]2CCCN2C(=O)CNC(=O)CNC(=O)[C@@H](NC(=O)CN)CSSC[C@@H](C(N)=O)NC(=O)[C@H](CC(C)C)NC(=O)[C@H](CCCCN)NC(=O)[C@H](CCCNC(=N)N)NC(=O)[C@H]([C@@H](C)CC)NC1=O	–	25% human serum	50 µM, 24 h	relative to: 0 h control	remaining intact peptide	1.2 ± 0.1%
CC[C@H](C)[C@@H]1NC(=O)[C@H](CCCCN)NC(=O)[C@H](CCCCN)NC(=O)[C@H](C)NC(=O)[C@H](C(C)C)NC(=O)[C@H](C)NC(=O)[C@H](CC(C)C)NC(=O)[C@H](CC(C)C)NC(=O)[C@H](C)NC(=O)[C@H](CCCCN)NC(=O)[C@H](CC(C)C)NC(=O)[C@H](CC(N)=O)NC(=O)[C@H](CC(C)C)NC(=O)[C@@H](N)CSSC[C@@H](C(N)=O)NC(=O)[C@H](CC(C)C)NC1=O	RP-HPLC	10% FBS in RPMI-1640	50 µM, 24 h, 37 °C	–	remaining peptide	< 40%

For quick reference, copied from above:
SMILES	assay	system	conditions	how to read	measurement	result
COc1cc(C(=O)NCCOCCOCCOCCNC(=O)c2ccc([18F])nc2)ccc1NC(=O)C1NC(CC(C)(C)C)C(C#N)(c2ccc(Cl)cc2F)C1c1cccc(Cl)c1F (centres unmarked)	–	human serum	4 h, 37 °C	–	remaining intact	~100%
